Assay results of several laboratories.
A part holds a random share of what one study measured. Positions count from the first letter of the parent shown.

Set 1
Target: PABPC1L2, full length, GST fusion (mouse, UniProt A0ABA7IW68)
Technique: RNAcompete
Molecule type: RNA
Matrix: in vitro
Tested at: 20 nM
Notes: 7-mer, probes averaged, single round
Reference: mean of 7-mers
Direction: higher = stronger binding
Measurement: 7-mer Z-score
Residues (chain): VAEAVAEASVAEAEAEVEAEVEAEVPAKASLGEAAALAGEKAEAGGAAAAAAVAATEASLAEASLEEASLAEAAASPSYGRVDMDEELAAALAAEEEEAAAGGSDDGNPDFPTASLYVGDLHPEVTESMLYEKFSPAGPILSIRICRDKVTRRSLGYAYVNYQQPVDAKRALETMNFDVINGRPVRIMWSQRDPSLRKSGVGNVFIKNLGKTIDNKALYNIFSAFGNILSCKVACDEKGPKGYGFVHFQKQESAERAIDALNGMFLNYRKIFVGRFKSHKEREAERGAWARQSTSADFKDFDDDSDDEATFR
ACAUCGA: 0.18
ACUAAAG: 0.602
CGAUCUU: -0.141
GGUCAUU: -0.0319
AACGACG: 0.278
UCCCUGU: -0.347
CUAAGGU: -0.13
GGUUGUG: -0.246
UUCGAUC: -0.304
CAAGGGG: 0.425
GCGUAUC: -0.191
GAGAGAG: 0.171
AUCGCUG: -0.0971
ACCUCGC: -0.376
ACGUUCC: -0.335
CUAUCUU: -0.331
CGGAAGG: -0.0736
AACCCCU: -0.213

Set 2
Target: NFE2L3, bZIP domain (human)
Technique: DHFR protein complementation
Matrix: yeast
Notes: single substitutions, most at no-binding floor
Reference: wild-type JUN-FOS pair
Direction: higher = stronger binding
Measurement: binding fitness
Starting sequence: JUN, bZIP domain (human); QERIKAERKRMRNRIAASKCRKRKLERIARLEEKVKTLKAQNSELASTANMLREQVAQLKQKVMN; partner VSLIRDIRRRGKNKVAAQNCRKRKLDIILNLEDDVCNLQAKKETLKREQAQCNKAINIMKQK
Q55A: -1.44 natural log
T48I: -1.37 natural log
A46Q: -1.5 natural log
L45G: -1.56 natural log
L45Q: -1.54 natural log
K34Y: -1.54 natural log
Q55H: -1.46 natural log
Q41A: -1.38 natural log
L38Q: -1.63 natural log
S43A: -1.23 natural log
L31M: -1.43 natural log
R30Q: -1.19 natural log
S43P: -1.42 natural log
R30S: -1.45 natural log
E33D: -1.15 natural log
S47H: -1.54 natural log

Set 3
Target: CCNA1, cyclin fold, Cln2 fusion (human)
Technique: yeast growth competition, sequencing
Matrix: yeast
Notes: weak parent motif
Reference: not given
Direction: higher = stronger binding
Measurement: normalised enrichment score
Starting sequence: CABLES2 docking peptide (human); ICAKRSLCAAFSV; partner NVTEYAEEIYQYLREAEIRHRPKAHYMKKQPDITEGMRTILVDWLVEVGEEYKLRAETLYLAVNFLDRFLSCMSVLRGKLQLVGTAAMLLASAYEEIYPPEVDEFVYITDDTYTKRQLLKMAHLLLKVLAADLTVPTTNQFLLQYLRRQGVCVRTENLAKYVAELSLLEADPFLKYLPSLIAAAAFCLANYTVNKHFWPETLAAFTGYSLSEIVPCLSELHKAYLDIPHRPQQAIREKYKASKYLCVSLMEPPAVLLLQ
S12A: 0.433
I1A: -0.207
R5A: -0.055
F11A: 0.411
V13A: 0.119

Set 4
Target: Sal-like protein 4, full length isoform A (SALL4, Homo sapiens, UniProt Q9UJQ4, residues 1-1053)
UniProt Q9UJQ4, sequence (whole entry, looked up): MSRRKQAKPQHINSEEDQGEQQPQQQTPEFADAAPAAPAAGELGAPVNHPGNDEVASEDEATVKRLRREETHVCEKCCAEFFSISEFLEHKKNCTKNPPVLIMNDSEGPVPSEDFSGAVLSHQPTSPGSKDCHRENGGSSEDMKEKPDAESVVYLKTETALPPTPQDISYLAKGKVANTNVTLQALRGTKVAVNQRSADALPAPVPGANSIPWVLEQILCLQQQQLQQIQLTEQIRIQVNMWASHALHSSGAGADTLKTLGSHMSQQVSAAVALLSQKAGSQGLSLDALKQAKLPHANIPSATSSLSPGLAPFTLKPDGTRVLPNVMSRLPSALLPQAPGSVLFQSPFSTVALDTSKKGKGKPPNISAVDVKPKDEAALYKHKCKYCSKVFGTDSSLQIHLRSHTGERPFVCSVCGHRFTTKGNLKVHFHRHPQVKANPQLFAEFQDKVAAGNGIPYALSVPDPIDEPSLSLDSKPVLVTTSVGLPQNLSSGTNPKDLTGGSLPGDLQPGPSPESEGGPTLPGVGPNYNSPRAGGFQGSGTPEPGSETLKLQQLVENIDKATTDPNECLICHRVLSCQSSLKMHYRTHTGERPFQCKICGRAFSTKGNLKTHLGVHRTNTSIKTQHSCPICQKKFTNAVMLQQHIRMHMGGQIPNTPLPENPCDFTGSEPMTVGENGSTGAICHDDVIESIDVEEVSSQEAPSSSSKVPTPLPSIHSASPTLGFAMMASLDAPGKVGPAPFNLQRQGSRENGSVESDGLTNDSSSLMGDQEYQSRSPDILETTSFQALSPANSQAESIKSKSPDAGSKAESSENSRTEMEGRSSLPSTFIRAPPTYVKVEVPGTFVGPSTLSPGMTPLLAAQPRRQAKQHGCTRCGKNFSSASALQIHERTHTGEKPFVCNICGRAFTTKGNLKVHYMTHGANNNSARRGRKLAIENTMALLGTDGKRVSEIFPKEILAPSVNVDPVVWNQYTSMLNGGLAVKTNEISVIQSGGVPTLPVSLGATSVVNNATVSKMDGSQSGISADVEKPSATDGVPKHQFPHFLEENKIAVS
Technique: universal PBM
Molecule type: double-stranded DNA, one strand shown
Matrix: in vitro
Tested at: 600 nM
Notes: 8-mer, flanks averaged, mean of replicates
Direction: higher = stronger binding
Measurement: E-score
AGTGTGTG: -0.0713
AGCAATGG: -0.0399
AATCCTTC: 0.0635
CATCTGTA: 0.164
GACAAGTC: -0.106
GGCTCACA: -0.219
GCACCCGA: -0.326
ATCTTTTG: 0.151
AGATTAAA: 0.265
CCAAGGGC: -0.204
AGGCAGTC: -0.189
CAGAAGTC: -0.0951
TCGACACA: 0.128
TACTCCTA: 0.108
TGACTACA: 0.227
CGGCCGCA: -0.256

Set 5
Target: Centromere-binding protein 1, full length, N-terminal tag (CBF1, Saccharomyces cerevisiae, UniProt P17106, residues 1-351)
UniProt P17106, sequence (whole entry, looked up): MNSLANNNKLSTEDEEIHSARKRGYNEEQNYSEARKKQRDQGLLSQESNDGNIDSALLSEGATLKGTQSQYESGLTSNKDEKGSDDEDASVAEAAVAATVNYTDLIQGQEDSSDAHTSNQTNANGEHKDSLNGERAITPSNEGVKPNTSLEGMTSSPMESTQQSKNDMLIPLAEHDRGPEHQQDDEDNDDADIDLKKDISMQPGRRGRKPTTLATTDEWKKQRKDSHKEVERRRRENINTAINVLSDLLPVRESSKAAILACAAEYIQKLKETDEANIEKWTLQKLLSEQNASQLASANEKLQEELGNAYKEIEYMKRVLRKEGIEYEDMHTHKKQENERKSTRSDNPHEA
Technique: protein-binding microarray
Molecule type: double-stranded DNA, one strand shown
Matrix: in vitro
Tested at: 0.8 µM
Notes: whole 60-bp probe, no competitor
Direction: higher = stronger binding
Measurement: fluorescence intensity
Constant ends, left off below: … GTCTTGATTCGCTTGACGCTGCTG
GAAATGGTAGGAGCACGCGTGAAAGCAGGGTCTTAG: 598 a.u.
GAAAATCCAGCCCATCACCCGGATATTCTGGAATAG: 478 a.u.
CTATCAAAAATAATTGACGTCATCGCTACAAGTTTC: 536 a.u.
CTAGAATGAGGAATAATCGTGATATTAGTAAATTTC: 552 a.u.
GAACGCCCCTTGACGGTGGTGGTATATATTAGGTAG: 497 a.u.
CTATTTTTACGAGGGCACGTTATAACGTTGGACTTC: 689 a.u.
GAATACGTTTTCAATCACGACCAAGAGTAAGGTTAG: 627 a.u.
GAATCTTCCAAAAATCACGTTGATGCCACCAGGTAG: 1010 a.u.
CTATTGTACGGTTCGTACGTGGGCACAATGAATTTC: 505 a.u.
GAATCTGGTACATAAGGTGAGTCATATTTACATTAG: 530 a.u.
CTAACGTGTTATTTCCAGCACGTGGGGCGGAAATTC: 10100 a.u.
GAACGATACCAACATTATCTGATGTTTCAATGTTAG: 514 a.u.
GAAAATTGAACGGTTGGTCAGGAGAACGAAGAATAG: 645 a.u.
CTATGAAGGTTTGTACATGTGCGAGTTCATGAGTTC: 711 a.u.
GAATTATTCTTTCTTGGTGACATGAAAATAATATAG: 612 a.u.
GAAGCCGTACAGAACTACATGATGTATTGCATTTAG: 507 a.u.
CTAAAAAGGACTGCGCAGGTGAGGGTTTTTACGTTC: 555 a.u.
CTAGCTTGATGACATGTGATAGCACACCATGCTTTC: 1950 a.u.
GAATAGTATGACTACTACGTGATGGTCGATAGTTAG: 586 a.u.
CTAAGCACTCGCTATTTCGTGACAACGTTCCAGTTC: 540 a.u.
CTAAAGAAATCTTAGGACATCAGAAATGTACGTTTC: 509 a.u.
CTAGTCAAAAGAACGCACATGAAAGGAGTGACATTC: 556 a.u.
TGTACGAAGCTATATCATGCCGTTATAGTAGTTAGG: 517 a.u.
GAAATTTTGCTACCCCACGTCACCAATGCACTATAG: 552 a.u.

Set 6
Target: Fragile X messenger ribonucleoprotein 1, C-terminal low-complexity region (Fmr1, Mus musculus, UniProt P35922)
Technique: RNA Bind-n-Seq
Molecule type: RNA
Matrix: in vitro
Tested at: 200 nM
Notes: whole 134-nt RNA, ends assumed
Added: 150 mM LiCl
Reference: input library
Direction: higher = stronger binding
Measurement: log2 enrichment
Library: 7-deaza-guanosine replaces G
Constant ends, left off below: GGGAGUUCUACAGUCCGACGAUC … UGGAAUUCUCGGGUGUCAAGG
GCAGGAAGUAAAAACAAAUGGAAAUGCUUCGGAUAGUGGCAGGGGUGGGGGUUGCUAAGGAAAGGGUGGGAUGGGAGUGGCUAAAGAGUU: 1.3
CAAGUCCUGUGCUACACAUCGUAUGUACCGAAUCGGAAAGGGGAAAGGGGAAAGGAAAGUAUUAUGUUACGCCGUUCGGAUCUGCACUUC: -0.107
CCUCAAGUCCUGUGCUACACAUCGUAUGUACCGAAUCGGGGAGGAGGGAGGGAAAGUAUUAUGUUACGCCGUUCGGAUCUGCACUUCCAG: -0.477
UCCUGUGCUACACAUCGUAUGUACCGAAUCGGGGUUUUUUGGUUUUUUGGGUUUUUUGGGAAAGUAUUAUGUUACGCCGUUCGGAUCUGC: -1.02
UCCUGUGCUACACAUCGUAUGUACCGAAUCGGUUUUUGGGGUUUUUGGGGUUUUUGGGGAAAGUAUUAUGUUACGCCGUUCGGAUCUGCA: -0.845
UGGGAGGUGGAUGUUGUUUAUUUUUUUAGCUCAUUUCCAGGGGUGGGAAUUUUUUUUUAAUAUGUGUCAUGAAUAAAGUUGUUUUUGAAA: 0.164
GUCCUGUGCUACACAUCGUAUGUACCGAAUCGGGGUUUUUGGGUUUUUGGGUUUUUGGGAAAGUAUUAUGUUACGCCGUUCGGAUCUGCA: -0.803
CACAGACAACACGCACCCAAAAAGACACAGAGGGAAGGGGUUGGGAUGGGGACAGGGUGCACAGCAGGGCGGGGUAGGACCCCAGCCCCU: 0.563
AAGUCCUGUGCUACACAUCGUAUGUACCGAAUCGGGCCCCGGGGCCCCGGGCCCCGGAAAGUAUUAUGUUACGCCGUUCGGAUCUGCACU: -0.543
UGGCCCUGGUGGCAUGCGGGGAGGAAGAGGUGGCCUCAUGGAUCGUGGUGGUCCCGGUGGAAUGUUCGGAGGUGGCCGUGGUGGAGACAG: -0.233
AGUCCUGUGCUACACAUCGUAUGUACCGAAUCGGCCCCCGGGCCCCCGGCCCCCGGGGAAAGUAUUAUGUUACGCCGUUCGGAUCUGCAC: -1.36

Further values, each from its own experiment
PhoQ, residues 284 288 289 292 302 303 NLMGRA
fold induction (PhoP, residues 12 14 15 18 19 NHTVL (Escherichia coli, UniProt P23836); Sort-seq, measured: YFP reporter; E. coli; PhoQ-PhoP variant library, added: 10 µM Mg2+; reference: high Mg2+ state, higher = stronger signaling): 9.74

Some of these lines once more (further values, each from its own experiment):
PhoQ, residues 284 288 289 292 302 303 NLMGRA
fold induction (PhoP, residues 12 14 15 18 19 NHTVL (Escherichia coli, UniProt P23836); Sort-seq, measured: YFP reporter; E. coli; PhoQ-PhoP variant library, added: 10 µM Mg2+; reference: high Mg2+ state, higher = stronger signaling): 9.74
